Measured values from different studies.
Protocols differ between the studies behind these lines. Values joined by “and” are separate records of one study, mostly repeats; a detail may differ.

CN1CCN(C(=O)c2ccc(-c3cc4c(N5CCC[C@H](C(=O)NCc6ccc(OC(F)(F)F)cc6)C5)ncnc4[nH]3)cc2)CC1 has an inhibition of 58.2% (NCI-H2228; cell growth or viability, MTT; 0.04 µg/mL, 72 h).
COC(=O)c1cc(NC2=NC(=O)C(=Cc3ccc(N(C)C)cc3)S2)ccc1OC(C)=O gave a metabolite level of -0.53 fold change (MCF7; GC-MS, refers to: Trimethylamine; 1 µM; baseline: DMSO).
CO[C@@H]1[C@@H](OC(N)=O)[C@@H](O)[C@H](Oc2ccc3c(O)c(NC(=O)c4ccc(O)c(CC=C(C)C)c4)c(=O)oc3c2C)OC1(C)C has a colony count of 1.5 (DLD-1 BRCA2-/-; 75 µM, replicate 1).
With CC(C)c1ccc(N(C)c2ccc3c(c2)OCC[C@H]3CNc2cnccc2C(=O)O)cc1 the IC50 was 0.765 nM (NCI-H1155; cell viability, CellTiter-Glo; 7 days).
Cc1cc(NC2CCN(C)CC2)ccc1-c1cc2c(N3CCC[C@H](C(=O)N[C@H](C)c4ccccc4)C3)ncnc2[nH]1 has an inhibition of 20.9% (NCI-H2228; cell growth or viability, MTT; 0.008 µg/mL, 72 h).
Cc1ncsc1-c1ccc(C(C)NC(=O)C2CC(O)CN2C(=O)C(NC(=O)CCCCCCCCCCN2CCCC(Nc3ncc(Cl)c(Nc4ccccc4S(=O)(=O)C(C)C)n3)C2)C(C)(C)C)cc1 (stereo not drawn): “log2 fold change” -2.56 (22Rv1; RNA-seq, refers to: SHC4 mRNA; concentration not given; baseline: DMSO).
With Cc1cc(NC2CCN(C)CC2)ccc1-c1cc2c(N3CCC[C@H](C(=O)N4CCCC4)C3)ncnc2[nH]1 the inhibition was 10.8% (NCI-H2228; cell growth or viability, MTT; 0.2 µg/mL, 72 h).
For CCN(C(=O)c1cc(F)ccc1Oc1nncnc1N1CCC2(C1)CN([C@H](CCCN(C)CCOC)C(C)C)C2)C(C)C, the GI50 was over 10000 nM (SNB-75; brain; 168 h).
Under “log2 fold change”, CN1CCCNC(=O)c2cccc(c2)C(=O)NCCCN(C)CCCNc2cccc3c2C(=O)c2cccc(c2C3=O)NCCC1 is recorded as 0.811 (SAS; RNA-Seq, refers to: PLPBP mRNA; 1 µM, 6 h; baseline: untreated cells).
With CCN(CC)CC(=O)Nc1cccc(-n2cc(-c3ccc4ccc(-c5cn(-c6cccc(NC(=O)CN(CC)CC)c6)nn5)cc4c3)nn2)c1 the fold regulation was -1.2 (RCC4; PCR angiogenesis array, refers to: EFNA1; 5 x IC50, 4 h, normoxia; baseline: untreated).
With COc1ccccc1-c1ccncc1C(=O)Nc1nnc(OCc2ccc(Cl)cc2)s1 the colony survival was 64.5% and 55.9% (PEO1 (BRCA2-mutant ovarian cancer); 0.5 µM, added: olaparib 0 µM).
O=C(NCc1ccc(OC(F)(F)F)cc1)[C@H]1CCCN(c2ncnc3[nH]c(-c4ccc(N5CCOCC5)cc4)cc23)C1 has an inhibition of 62.3% (NCI-H2228; cell growth or viability, MTT; 0.04 µg/mL, 72 h).
CNS(=O)(=O)Nc1nccc(Cc2c(C)c3ccc(Oc4ncccc4F)cc3oc2=O)c1F gave an IC50 of over 1000 nM (NCI-H647; cell viability; 7 days).
Under “log2 fold change”, Cn1ncc2cc(-c3cncc(Cl)c3N3CCC4(CCNC4=O)CC3)ccc21 is recorded as 1.06 (LS174T; gene expression, microarray, refers to: SEMA4D mRNA; concentration not given, 4 h; baseline: untreated cells).
With COc1cc(-c2cc3c(N4CCC[C@H](C(=O)NCc5ccc(OC(F)(F)F)cc5)C4)ncnc3[nH]2)cc(OC)c1OC the inhibition was 33.8% (NCI-H2228; cell growth or viability, MTT; 0.04 µg/mL, 72 h).

A few entries again:
Cc1ncsc1-c1ccc(C(C)NC(=O)C2CC(O)CN2C(=O)C(NC(=O)CCCCCCCCCCN2CCCC(Nc3ncc(Cl)c(Nc4ccccc4S(=O)(=O)C(C)C)n3)C2)C(C)(C)C)cc1 (stereo not drawn): “log2 fold change” -2.56 (22Rv1; RNA-seq, refers to: SHC4 mRNA; concentration not given; baseline: DMSO).
